Measurements pooled from the literature.
Lines come from different studies, so protocols differ. Several values in a cell are separate wells, animals, samples, runs or records.
Target: SRSF protein kinase 2 (SRPK2, Homo sapiens, UniProt P78362)

| Compound | assay | conditions | how to read | measurement | value |
| --- | --- | --- | --- | --- | --- |
| Cc1cnc2nc1Nc1cccc(c1)COC/C=C/COCc1cc(ccc1OCCN1CCOCC1)N2 | binding, competition with immobilised ligand | 0.1 µM | – | remaining binding | 86% |
| CC(C)=CC1OC(C)(C)C2C=C3C(=O)C(Cl)=CC(O)C3C3C(O)C4OC4C(=O)C132 (stereo not shown) | cell-free assay, competition with immobilised ligand | 10 µM | – | remaining binding | 100% |
| Cc1ccc(-c2c(/C=C(\C#N)C(=O)NC(C)C)n(CCCO)c3ncnc(N)c23)cc1 | cell-free assay, competition with immobilised ligand | 1 µM | – | remaining binding | 100% |
| Nc1ncc2c(n1)-c1c([nH]c3ccc(C4=CCOCC4)cc13)CCC2 | binding, competition with immobilised ligand | 1 µM | – | remaining binding | 100% |
| CN(C(=O)N(C)c1ccc(C#N)cc1)c1ccccc1 | enzyme activity, inhibitor, FRET | 10 µM | – | inhibition | 0.4% |
| Cc1cccc(O[C@H]2CCC[C@@H](C(C)CNCc3ccncc3)C2)c1 (relative stereo) | enzyme activity, inhibitor | 10 µM | – | inhibition | -4% |
| C=CC(=O)N1Cc2nc(-c3cc(-c4cc(Cl)cnc4Cl)c(F)cc3F)n(-c3ccncn3)c2C1 | cell-free assay, inhibitor | 1 µM | – | inhibition | 1.4% |
| O=C(Nc1cccc(C(F)(F)F)c1)Nc1ccccc1O | enzyme activity, inhibitor, FRET | 10 µM | – | inhibition | 0.6% |
| C=CC(=O)N1CCc2ccc(-n3c(=O)ccc4cnc5ccc(-c6cnn(C)c6)cc5c43)cc21 | KINOMEscan | 1 µM | relative to: DMSO control | remaining binding | 100% |
| C=CC(=O)Nc1cccc(-c2cnc3[nH]cc(C(=O)NC(C)(C)C)c3n2)c1 | kinase activity | 0.1 µM | – | inhibition | 3% and 1% |
| O=C=[N][Ru-4]123([n]4c5ccc(O)cc5c5c6c(c7cc(F)c[n+]1c7c54)C(=O)NC6=O)[S+]1CC[S+]2CC[S+]3CC1 (stereo not shown) | enzyme activity | 100 nM, human enzyme, added: 10 µM ATP | relative to: untreated | remaining activity | 30% |
| CN1CCN(Cc2ccc(-c3ccc(CO[C@H]4CCC[C@@H]4NC(=O)c4cc(-c5cnn(C)c5)cnc4N)cc3)cc2)CC1 | enzyme activity, inhibitor | 0.1 µM | – | inhibition | -5% |
| C=CC(=O)N1CCCC(n2c(=O)c3ncccc3n(Cc3ccc(Oc4ccccc4)cc3)c2=O)C1 (stereo not shown) | cell-free assay, competition with immobilised ligand | 1 µM | – | remaining binding | 98% |
| NC(=O)[C@@H](O)C[C@H]1CCc2sc3ncnc(O[C@H]4CC[C@H](N5CCOCC5)CC4)c3c21 | enzyme activity, inhibitor | 10 µM | – | inhibition | 6% |
| O=C(Nc1ccccc1)Nc1ccccc1O | enzyme activity, inhibitor, FRET | 10 µM | – | inhibition | 4.3% |
| COc1cc(Nc2nccc(-c3cnn4nc(OC)ccc34)n2)cc(C(F)(F)F)c1 | binding, competition with immobilised ligand | 1 µM | – | remaining binding | 55% |
| COc1cccc(NC(=O)Nc2ccccc2O)c1 | enzyme activity, inhibitor, FRET | 10 µM | – | inhibition | -0.9% |
| O=C(Cc1ccc(OCc2ccccc2)cc1)NC1(C(=O)O)CCN(C(=O)c2ccc(-c3cccc(Cl)c3)cc2)CC1 | enzyme activity, inhibitor | 10 µM | – | activity vs control | 104% |
| C[C@H]1CN(C(=O)c2cn(-c3ccnc(N)n3)c3cc(C#CC4(O)CCCCC4)ccc23)CCN1 | enzyme activity, inhibitor, FRET | 1 µM | – | inhibition | 5% |

Excerpt of the above:
| Compound | assay | conditions | how to read | measurement | value |
| --- | --- | --- | --- | --- | --- |
| Cc1cccc(O[C@H]2CCC[C@@H](C(C)CNCc3ccncc3)C2)c1 (relative stereo) | enzyme activity, inhibitor | 10 µM | – | inhibition | -4% |
| C=CC(=O)N1Cc2nc(-c3cc(-c4cc(Cl)cnc4Cl)c(F)cc3F)n(-c3ccncn3)c2C1 | cell-free assay, inhibitor | 1 µM | – | inhibition | 1.4% |
